Published values collected from several papers.
Every numbered part comes from another study and shows a few of its results, in no order. Substitutions count along the parent as printed.

Sample 1
Target: CCNF, cyclin fold, Cln2 fusion (human)
Technique: yeast growth competition, sequencing
Sample: yeast
Notes: strong parent motif
Baseline: not given
Direction: higher = stronger binding
Starting sequence: ORC1 docking peptide (human); PRARKRLELGNLG
Variant	normalised enrichment score
N11R	3.19
L12Y	4.15
N11F	4.01
E8D	3.73
L9Y	3.83
L7F	0.198
L9H	1.52
R4A	1.63
G13F	3.24
G10I	2.59
P1W	4.93
R4N	1.45
R6L	1.95
R2G	3.36
R4C	1.97

Sample 2
Target: Interferon regulatory factor 3, full length, phosphomimetic (IRF3, Homo sapiens, UniProt Q14653, residues 1-427, S386D/S396D/S398D/S402D/T404D/S405D)
Technique: protein-binding microarray
Molecule type: double-stranded DNA, one strand shown
Sample: in vitro
Concentration: 2540 nM top
Notes: 60-bp whole probe
Together with: salmon DNA 0.4 mg/ml
Baseline: random background probes
Direction: higher = stronger binding
Shared flanks, not repeated: GCCTAGCAC … GTCTTGATTCGCTTGACGCTGCTG
Residues (chain): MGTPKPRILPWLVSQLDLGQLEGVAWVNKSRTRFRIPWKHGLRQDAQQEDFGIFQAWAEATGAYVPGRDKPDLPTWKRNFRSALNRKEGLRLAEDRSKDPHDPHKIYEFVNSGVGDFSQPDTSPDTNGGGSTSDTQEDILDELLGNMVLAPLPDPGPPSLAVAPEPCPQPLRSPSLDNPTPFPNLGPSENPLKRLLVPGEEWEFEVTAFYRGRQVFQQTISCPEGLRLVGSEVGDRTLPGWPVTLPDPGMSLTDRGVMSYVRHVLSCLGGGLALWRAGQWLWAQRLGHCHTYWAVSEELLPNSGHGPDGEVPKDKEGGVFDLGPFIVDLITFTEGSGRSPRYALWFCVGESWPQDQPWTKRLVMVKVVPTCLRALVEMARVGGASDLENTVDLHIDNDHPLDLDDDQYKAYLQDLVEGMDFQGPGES
Sequence	fitted relative affinity
GTTTTTTAAAGTTTCAGTGAGTGCTAG	1.37 z-score
GACGGTATCGGTCTCGTGACGTGCTAG	4.57 z-score
GTGAACCGGTCTCTCAGACCGTGCTAG	0.795 z-score
TTAGGACTGGACACCGGGTTAGTGCTA	-0.719 z-score
TTAGATCTCAGAATGGATTAGTGCTAG	0.218 z-score
TTAGGTATCCACTATCGGTTAGTGCTA	1.41 z-score
GACGGACTGGACTTTCGGGAGGTGCTA	-0.154 z-score
TTAGTTTTCGGGTATCGGTTAGTGCTA	2.71 z-score
TTAGCTTTCAGTCTCGATTAGTGCTAG	2.53 z-score
TCAATTTTCACGGTGGGACTGTGCTAG	0.138 z-score
TTAGGTTTCCACACTGGGTTAGTGCTA	4 z-score
CTATATTTGCTTCAGGTTTAGTGCTAG	0.488 z-score
TCATTTTGAGTTTTCCTACTGTGCTAG	2.08 z-score
TTAGGTTTACTTTCCCTTTAGTGCTAG	7.19 z-score
GACGGTTTCGGGTTTGGGGACGTGCTA	5.15 z-score

Sample 3
Target: Sal-like protein 4, full length isoform B (SALL4, Homo sapiens, UniProt Q9UJQ4-2, residues 1-616)
Technique: universal PBM
Molecule type: double-stranded DNA, one strand shown
Sample: in vitro
Concentration: not given
Notes: 8-mer, flanks averaged, mean of replicates
Direction: higher = stronger binding
Sequence	E-score
CGCCTTGC	-0.0689
AGGTATTA	0.255
CTGCCTGA	0.0211
CCGCAAAA	-0.00451
AAAGTGGC	-0.0757
CCAAAAGA	0.146
CCCAGGCC	-0.392
CATGGAAG	0.15
AGTAACCA	-0.0819
ATGAATAG	0.255
ATGAATGA	0.331
ACTAGAAT	0.238
ACGCCACC	-0.226
AGCAGAGG	-0.154
ACAATGGA	0.19

Single results of other studies
Molecule	target	test	system	conditions	scale	quantity	result
PhoQ, residues 284 288 289 292 302 303 GTAMQF	PhoP, residues 12 14 15 18 19 SFCSL (Escherichia coli, UniProt P23836)	Sort-seq, measured: YFP reporter	E. coli	PhoQ-PhoP variant library, together with: 10 µM Mg2+	baseline: high Mg2+ state, higher = stronger signaling	fold induction	5.31
